Results gathered from unrelated publications.
± gives the spread as reported.
Organism: Influenza A virus

Compound	assay	system	conditions	scale	quantity	value
CCN(CC)CC#CCOC(=O)[C@]1(C)CCC[C@@]2(C)[C@H]1CC=C1C=C(C(C)C)CC[C@@H]12	–	MDCK, A/Puerto Rico/8/34 (H1N1)	–	reference: CC50 over IC50	selectivity index	1.9
CC(=O)OC[C@H]1O[C@@H](Oc2cc(C)c3c(c2)C(=O)c2cccc(O)c2C3=O)[C@H](OC(C)=O)[C@@H](OC(C)=O)[C@@H]1OC(C)=O	viral replication, plaque reduction	A/Yuc/2370/09	concentration not given	–	inhibition	40 to 60%
CC(C)C1=CC2=C(C=O)C[C@@H]3[C@](C)(CCC[C@@]3(C)C(=O)OCC#CCN3CCOCC3)[C@H]2CC1	–	MDCK, A/Puerto Rico/8/34 (H1N1)	–	reference: CC50 over IC50	selectivity index	3.62
C=CCCCOP(=O)(O)Oc1c2c(c(OP(=O)(O)OCCCC=C)c3c1C1CC3c3cc4c(cc31)C1CC4c3ccccc31)C1CC2c2cc3c(cc21)C1CC3c2ccccc21	viral replication	Caco-2	–	–	IC50	34.5 µM
CCN(CC)C12C3CCC4C3C3C(CCC31)C42	viral replication	MDCK, A/FM/1/47 (H1N1)	–	–	EC50	18 ± 11 µM
Cc1cc(=O)[nH]c(=O)n1Cc1cn(C2OC(CO)C(O)C2O)nn1 (centres unmarked)	cytopathic effect protection	MDCK, A/Puerto Rico/8/34 (H1N1)	concentration not given	–	antiviral activity	inactive
CC(C)C1=C[C@@]23CC[C@@H]4[C@](C)(CCC[C@@]4(C)C(=O)OCC#CCN4CCOCC4)[C@H]2C[C@@H]1[C@H]1C(=O)OC(=O)[C@H]13	–	MDCK, A/Puerto Rico/8/34 (H1N1)	–	reference: CC50 over IC50	selectivity index	3.09
CC1=CCC[C@H](C)[C@@]12CC[C@@H](C(C)(C)O)C2	–	MDCK, A/PR/8/34 (H1N1)	–	reference: CC50 over IC50	selectivity index	3.3
C=CC(=O)Nc1cccc2c1cc(C)n2-c1nc2c(c(NCc3ccccc3)n1)CCCC2	–	MDCK, A/WS/33 (H1N1)	0.25 µM, 24 h, infected cells	–	viability	0%
CC(=N)NCC12C3CCC4C3C3C(CCC31)C42	viral replication	MDCK, H1N1 A/PR/8/34	–	–	EC50	> 100 µM
Cc1ccccc1-c1nnn(C23CC4CC(CC(C4)C2)C3)n1	–	A/Puerto Rico/8/34 (H1N1)	–	reference: CC50 over IC50	selectivity index	1
CCC1(CC)C2CC3CC(C2)CC1(N(C)C)C3	viral replication	A/Ishikawa/7/82 (H3N2)	–	–	EC50	> 100 µM
CC(C)c1ccc2c(c1)CC[C@H]1[C@](C)(C(=O)OCC#CCN3CCCC3)CCC[C@]21C	–	MDCK, A/Puerto Rico/8/34 (H1N1)	–	reference: CC50 over IC50	selectivity index	0.66
CN(C)CC12C3CCC4C3C3C(CCC31)C42	viral replication	MDCK, H1N1 A/PR/8/34	–	–	EC50	> 100 µM
CC(C)=CCC[C@H](C)c1ccc(C)cc1	–	MDCK, A/Shenzhen/203/2001 (H3N2)	–	reference: CC50 over IC50	selectivity index	6.2
CC(C)C1=CC2=CC[C@@H]3[C@](C)(CCC[C@@]3(C)C(=O)OCC#CCN3CCCC3)[C@H]2CC1	–	MDCK, A/Puerto Rico/8/34 (H1N1)	–	reference: CC50 over IC50	selectivity index	2.99
C1CC2C3C4C5CCC4C24CNCC54C13	viral replication	A/PR/8/34 parent allantoic stock	pH 4.9	–	EC50	1.6 ± 0.6 µM

Some of these lines once more:
Compound	assay	system	conditions	scale	quantity	value
CC(C)C1=C[C@@]23CC[C@@H]4[C@](C)(CCC[C@@]4(C)C(=O)OCC#CCN4CCOCC4)[C@H]2C[C@@H]1[C@H]1C(=O)OC(=O)[C@H]13	–	MDCK, A/Puerto Rico/8/34 (H1N1)	–	reference: CC50 over IC50	selectivity index	3.09
CC(=O)OC[C@H]1O[C@@H](Oc2cc(C)c3c(c2)C(=O)c2cccc(O)c2C3=O)[C@H](OC(C)=O)[C@@H](OC(C)=O)[C@@H]1OC(C)=O	viral replication, plaque reduction	A/Yuc/2370/09	concentration not given	–	inhibition	40 to 60%
Cc1cc(=O)[nH]c(=O)n1Cc1cn(C2OC(CO)C(O)C2O)nn1 (centres unmarked)	cytopathic effect protection	MDCK, A/Puerto Rico/8/34 (H1N1)	concentration not given	–	antiviral activity	inactive
